Results from different studies.
Parts stem from different laboratories: compare values within a part only. Positions count from the first letter of the parent shown.

Series 1
Target: CCND3, cyclin fold, Cln2 fusion (human)
Method: yeast growth competition, sequencing
Medium: yeast
Setting: weak parent motif
Baseline: not given
Direction: higher = stronger binding
Measurement: normalised enrichment score
Starting sequence: PKMYT1 docking peptide (human); SFEPRNLLSLFED; partner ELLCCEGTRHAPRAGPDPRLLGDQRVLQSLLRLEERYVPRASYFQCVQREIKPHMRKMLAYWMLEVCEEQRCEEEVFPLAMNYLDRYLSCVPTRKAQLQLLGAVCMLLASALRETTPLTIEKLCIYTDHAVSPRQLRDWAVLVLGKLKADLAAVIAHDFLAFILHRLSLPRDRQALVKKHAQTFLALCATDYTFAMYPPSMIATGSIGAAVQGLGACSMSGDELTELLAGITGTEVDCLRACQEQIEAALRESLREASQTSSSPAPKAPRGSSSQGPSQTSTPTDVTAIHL
SFEPRNLLSLMED [F11M]: 0.0683
SFLPRNLLSLFED [E3L]: 0.0733
SFEPRNLLSLFRD [E12R]: 0.159
SFEPLNLLSLFED [R5L]: 0.0702
SFEPRNELSLFED [L7E]: 0.00756
SFEPRNLLSFFED [L10F]: 0.02
SFEPRNLLSSFED [L10S]: -0.00109
SFEPRNLLSLFYD [E12Y]: 0.139
SFEIRNLLSLFED [P4I]: -0.0308
SFEPRNLASLFED [L8A]: 0.149
SAEPRNLLSLFED [F2A]: 0.0627
SFTPRNLLSLFED [E3T]: 0.0361
SFEPRNLLSLRED [F11R]: 0.0375
SFEPRNSLSLFED [L7S]: 0.136
SFPPRNLLSLFED [E3P]: 0.113
SFEPRNLLSNFED [L10N]: 0.184
SFEPRTLLSLFED [N6T]: 0.12
SFEPSNLLSLFED [R5S]: 0.0745
SFEPRNLQSLFED [L8Q]: 0.0866
SFEPRNLLSCFED [L10C]: 0.0384
SFEHRNLLSLFED [P4H]: 0.0736
SFECRNLLSLFED [P4C]: 0.11
SFEGRNLLSLFED [P4G]: 0.0863
SFEPRNLLSLFID [E12I]: 0.426
SFEPRNLRSLFED [L8R]: 0.0558

Series 2
Target: Histone acetyltransferase KAT6A, winged helix 2, GST fusion (KAT6A, Homo sapiens, UniProt Q92794, residues 85-181)
Method: protein binding microarray
Form: double-stranded DNA, one strand shown
Medium: in vitro
Concentration: not given
Setting: 8-mer, flanks averaged, mean of 2 arrays, mostly near background
Baseline: not given
Direction: higher = stronger binding
Measurement: E-score
Residues (chain): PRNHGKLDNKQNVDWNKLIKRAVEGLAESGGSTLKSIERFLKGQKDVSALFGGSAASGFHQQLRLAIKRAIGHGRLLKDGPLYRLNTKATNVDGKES
AATCCGGA: 0.142
ACATGCAA: -0.0634
AGCCGTAG: -0.0153
CTAGCTAC: -0.00707
CGCGTTAA: -0.0117
ACTCGTCG: -0.0149
CTTCGAGA: 0.047
AGAGGACC: -0.172
GTCTGATA: -0.166
AGTCATTA: -0.217
ACTAAGGC: -0.177
TAACTGTA: -0.19
CGAGCTCC: 0.0103
AGTTTGGG: 0.2
CCATGAGC: -0.0593
TACGGACA: -0.0709
ATGTCCCA: -0.0422
CGCTCCGC: 0.254
GCGTGAGC: 0.138
CCCTTAAA: 0.022

Series 3
Target: RING finger protein unkempt homolog, zinc fingers 1-6, SBP tag (UNK, Homo sapiens, UniProt Q9C0B0, residues 30-357)
Chain of UniProt Q9C0B0 (30-357, looked up): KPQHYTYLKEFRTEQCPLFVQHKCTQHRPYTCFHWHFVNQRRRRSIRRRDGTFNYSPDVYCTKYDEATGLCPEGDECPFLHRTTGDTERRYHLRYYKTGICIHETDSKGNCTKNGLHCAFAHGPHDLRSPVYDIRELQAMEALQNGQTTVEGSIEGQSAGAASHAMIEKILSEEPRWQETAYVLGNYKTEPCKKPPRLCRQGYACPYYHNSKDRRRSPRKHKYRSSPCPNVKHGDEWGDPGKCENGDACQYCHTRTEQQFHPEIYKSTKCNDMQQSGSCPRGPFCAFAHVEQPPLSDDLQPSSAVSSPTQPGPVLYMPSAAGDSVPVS
Method: RNA Bind-n-Seq
Form: RNA
Medium: in vitro
Concentration: 100 nM
Setting: RNA with constant flanks, vertebrate orthologous sites, ends assumed
Baseline: input RNA pool
Direction: higher = stronger binding
Measurement: bound/input enrichment
All sequences stand within: GGGAGUUCUACAGUCCGACGAUC … CAACAGAGGAUUGAGCAUCA
AAUGUGUUAUUUAUUGAAGAUAAUUUUGUGCGAAAGACUGUGUCCCAAUUUAAAAUUGAGUUAGUUGUUUGAUUCCUAUUUGUUGUGGUAUAGUUUUCUUUUUUCAUUAUUGAAAAUAAA: 0.661 ratio
UGUCCUUUCUUACUGUCCCCAGCCAGGGCCGGGGACCAGUGUUUCACUGAGGACCUGCAUUAGAAACAUUUUUUAAAUUGUUGUACAGGAAGAGAUGUGUCUAAAACAGCAUCUUAAAGC: 0.933 ratio
UGAGCGAGAGAUGCCUGUGCUUUCUCAUAUUUAAUUUGCUCUUUUUAAGAUAUUCCAACCUAGAGUUUUUGAUGGAACUGAUAUAUUGACAAUUCUCAUCUAAGUCCUUUUAUAAAGAAU: 0.545 ratio
AUAUUGUAUGUAGAGAAAAAUUUUCAUUGACCCCAUUGUGAAAUUCCCUAGCAAUUUAUUUAGAAUCUUAAUUUUUCUAAUUAAAGCUCACUGUAUUAGUCAUUUUUAGCAUAAUUAAAA: 1.81 ratio
AGUAGUUUUAAGCUUGUUUGCACAGUUCUUUUUUUCCAUUGGAAAUGGAAUCCAUUGCCUUAGGUCUUCUUAAAUAGUGUAUUAUUAUCGUUGGGGCUGGCUCUAUGCUUGAAAACCAGU: 2.17 ratio
GAGCUAAAGGAGUCAGCAUCUUUAUUUUUGUAUCAGAGAUAAAGGUUAUUUUGAAAUUAUUAGGAUUUUUACACAACUCUGAAAUCUGUUGCUUUUGUAAACCAAUUGUUUGAUCUUCAG: 0.543 ratio
CUCGGGGAUACCGUGGGGCGCUGCUGACUGCUUCGCGUUGUUUGAUUUGUGACCUUGACAUAAUAGAUAGGCUUGUGGUUUGUUUGUUUUUUUAAUUUAAAGAUAUUAAAACUUAAUUCA: 0.536 ratio
GAUUUGGACCUUGGAGCUGAACCAGUGAGCUAGCAAAAGUAAAGCAGACUUGUAAAAUUAUAGCUAUAUGCAGCUGCACAACACAGUCCUACCACUAGCAGCUGUGUUAAAGUAUUUAUA: 0.884 ratio

Series 4
Target: Eukaryotic initiation factor 4A-I (EIF4A1, Homo sapiens, UniProt P60842, residues 1-406, full length assumed)
Chain of UniProt P60842 (whole entry, looked up): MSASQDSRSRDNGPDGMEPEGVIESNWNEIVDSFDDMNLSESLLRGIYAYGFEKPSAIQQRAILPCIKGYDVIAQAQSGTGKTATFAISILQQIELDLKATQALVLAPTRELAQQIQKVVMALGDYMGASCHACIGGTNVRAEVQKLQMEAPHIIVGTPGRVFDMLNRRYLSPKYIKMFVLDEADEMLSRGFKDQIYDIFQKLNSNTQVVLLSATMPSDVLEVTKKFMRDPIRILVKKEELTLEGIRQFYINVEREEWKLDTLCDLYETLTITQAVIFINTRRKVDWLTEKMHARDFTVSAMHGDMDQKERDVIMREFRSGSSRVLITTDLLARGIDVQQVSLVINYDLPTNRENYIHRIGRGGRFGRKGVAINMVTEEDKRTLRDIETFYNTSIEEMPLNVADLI
Method: RNA Bind-n-Seq
Form: RNA
Medium: in vitro
Concentration: 15 pmol
Setting: 4-mer, random 30-nt RNA, single round
Added: 3 µM DMDA-PatA, 2 mM AMP-PNP
Baseline: input library
Direction: higher = stronger binding
Measurement: 4-mer enrichment
UUCA: 0.615 fold
ACAG: 0.729 fold
GAUG: 1.33 fold
GCGG: 1.18 fold
UUUA: 1.13 fold
GCGA: 1.17 fold
UACU: 1.01 fold
CGGG: 1.65 fold
UCAC: 0.509 fold
ACGC: 0.621 fold
AUAG: 1.29 fold
UACA: 0.969 fold

Series 5
Target: ABI1, truncated, D143A, DHFR fusion (Arabidopsis thaliana)
Method: DHFR PCA, deep sequencing
Medium: yeast
Setting: methotrexate growth selection, single substitutions
Added: (+)-ABA 1.4 µM
Baseline: wild-type fitted maximum
Direction: higher = stronger binding
Measurement: relative binding score
Starting sequence: PYL1, truncated, DHFR fusion (Arabidopsis thaliana); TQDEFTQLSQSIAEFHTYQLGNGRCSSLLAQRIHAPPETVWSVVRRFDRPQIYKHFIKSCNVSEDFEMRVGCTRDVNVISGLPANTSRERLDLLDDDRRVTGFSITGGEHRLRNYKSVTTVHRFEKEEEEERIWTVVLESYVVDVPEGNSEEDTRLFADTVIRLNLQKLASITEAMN; partner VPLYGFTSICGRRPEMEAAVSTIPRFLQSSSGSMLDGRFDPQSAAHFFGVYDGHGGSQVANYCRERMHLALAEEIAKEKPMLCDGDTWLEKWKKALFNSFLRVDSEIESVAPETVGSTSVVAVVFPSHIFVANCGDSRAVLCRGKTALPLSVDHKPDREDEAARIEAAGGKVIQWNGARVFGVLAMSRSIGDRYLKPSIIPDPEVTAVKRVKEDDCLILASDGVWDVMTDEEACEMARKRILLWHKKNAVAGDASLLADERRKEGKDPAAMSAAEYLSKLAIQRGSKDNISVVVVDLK
D96P: -7.69%
V40T: 11.9%
N22I: 55%
P37Y: 13.4%
G108T: -13%
L8Q: 24.5%
C25S: 6.29%
V78F: 90.5%
Y53S: -6.12%
N85C: 57.3%
G107H: 12.8%

Excerpt of the above (series 3):
AAUGUGUUAUUUAUUGAAGAUAAUUUUGUGCGAAAGACUGUGUCCCAAUUUAAAAUUGAGUUAGUUGUUUGAUUCCUAUUUGUUGUGGUAUAGUUUUCUUUUUUCAUUAUUGAAAAUAAA: 0.661 ratio
AUAUUGUAUGUAGAGAAAAAUUUUCAUUGACCCCAUUGUGAAAUUCCCUAGCAAUUUAUUUAGAAUCUUAAUUUUUCUAAUUAAAGCUCACUGUAUUAGUCAUUUUUAGCAUAAUUAAAA: 1.81 ratio
UGAGCGAGAGAUGCCUGUGCUUUCUCAUAUUUAAUUUGCUCUUUUUAAGAUAUUCCAACCUAGAGUUUUUGAUGGAACUGAUAUAUUGACAAUUCUCAUCUAAGUCCUUUUAUAAAGAAU: 0.545 ratio
GAGCUAAAGGAGUCAGCAUCUUUAUUUUUGUAUCAGAGAUAAAGGUUAUUUUGAAAUUAUUAGGAUUUUUACACAACUCUGAAAUCUGUUGCUUUUGUAAACCAAUUGUUUGAUCUUCAG: 0.543 ratio
UGUCCUUUCUUACUGUCCCCAGCCAGGGCCGGGGACCAGUGUUUCACUGAGGACCUGCAUUAGAAACAUUUUUUAAAUUGUUGUACAGGAAGAGAUGUGUCUAAAACAGCAUCUUAAAGC: 0.933 ratio
GAUUUGGACCUUGGAGCUGAACCAGUGAGCUAGCAAAAGUAAAGCAGACUUGUAAAAUUAUAGCUAUAUGCAGCUGCACAACACAGUCCUACCACUAGCAGCUGUGUUAAAGUAUUUAUA: 0.884 ratio
AGUAGUUUUAAGCUUGUUUGCACAGUUCUUUUUUUCCAUUGGAAAUGGAAUCCAUUGCCUUAGGUCUUCUUAAAUAGUGUAUUAUUAUCGUUGGGGCUGGCUCUAUGCUUGAAAACCAGU: 2.17 ratio
